Measured values pooled from the literature.
A part holds a random share of what one study measured.

Set 1
Target: Prothrombin, mature alpha-thrombin (F2, Homo sapiens, UniProt P00734)
Technique: aptamer microarray, sandwich
Molecule type: DNA with 2'F-ANA
Sample: in vitro
Concentration: 200 nM
Notes: whole 15-mer aptamer, many near background
With: Cy3 exosite-II aptamer, 400 nM
Direction: higher = stronger binding
Strand: GGTTGGTGTGGTTGG
Under “mean fluorescence intensity”, `2'F-ANA at 1 3 8 10 12` is recorded as 122 a.u.
`2'F-ANA at 4 6 10 11 13 14`: “mean fluorescence intensity” 55 a.u.
`2'F-ANA at 3 5 7 8 11 12` — result for “mean fluorescence intensity”: 240 a.u.
`2'F-ANA at 2 3 4 8 9 10 11 12 13 15` — result for “mean fluorescence intensity”: 238 a.u.
Under “mean fluorescence intensity”, `2'F-ANA at 1 4 6 7 8 9 12 13 15` is recorded as 179 a.u.
`2'F-ANA at 1 2 7 8 9 10 11 12 14` — result for “mean fluorescence intensity”: 46.9 a.u.
`2'F-ANA at 1 3 7 8 10 12 14 15`: “mean fluorescence intensity” 69.7 a.u.

Set 2
Target: Histone acetyltransferase KAT6A, winged helix 1, GST fusion (KAT6A, Homo sapiens, UniProt Q92794, residues 1-85)
Technique: protein binding microarray
Molecule type: double-stranded DNA, one strand shown
Sample: in vitro
Concentration: not given
Notes: 8-mer, flanks averaged, mean of 2 arrays, mostly near background
Baseline: not given
Direction: higher = stronger binding
Target sequence (chain): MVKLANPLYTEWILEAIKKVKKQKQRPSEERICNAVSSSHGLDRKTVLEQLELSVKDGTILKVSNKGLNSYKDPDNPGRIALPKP
`ACAACTGT` gave an E-score of -0.113.
`TCGCCCGA` has an E-score of 0.203.
`ATACCTAG` gave an E-score of -0.0669.
`AACGCATC` gave an E-score of 0.107.
The E-score of `AGCCACCT` is reported as -0.241.
The E-score of `ACCGTCAG` is reported as 0.1.
With `AATCATAG` the E-score was -0.176.
The E-score of `CGGAAGAC` is reported as 0.212.
With `ACTACGCG` the E-score was 0.333.

Set 3
Target: RNA binding protein fox-1 homolog 2, RRM domain, GST-SBP tag (RBFOX2, Homo sapiens, UniProt O43251-10, residues 100-194)
Technique: RNA Bind-n-Seq
Molecule type: RNA
Sample: in vitro
Concentration: 365 nM
Notes: natural RNA segment, single round, ends assumed
Baseline: no-protein control
Direction: higher = stronger binding
Residues (chain): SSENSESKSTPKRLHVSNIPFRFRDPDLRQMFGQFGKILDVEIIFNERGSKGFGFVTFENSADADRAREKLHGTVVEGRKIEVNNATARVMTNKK
`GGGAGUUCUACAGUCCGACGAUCAAUUGAGCCUCUCUGAUGAUGGAGAUGAAGUGAAGGUCUGAGGGAGCGGGCCCUGGGGCGAGGCCAUCUCUGCCUGCCUCCCUAGCAGGCGCCAGCGGUGGAGGCUGAGUUGGAAUUCUCGGGUGCCAA` — result for “RBNS enrichment (R)”: 0.674.
For `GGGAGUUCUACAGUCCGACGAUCACUAUGUUAUUUCCUUUGUUCUGGUAUCCUUCCCUUGGAGGACCUUCUCUGAGUAGUGGCUCCCCAGGUUUGUCCUUUGAGCUGAGGCAGGAGGCUCACCCAUUCUUCUGUGGAAUUCUCGGGUGCCAA`, “RBNS enrichment (R)” read 0.416.
`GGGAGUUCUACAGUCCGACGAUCAGGGCAGACAGGAGUCCAGGCUCCAAGCUAUCCCCUUGCCUCUUUCUGCCCCCAGCCCCACCCCCCAACCAGUCUGCCUGUUGCCCCACUCAGCCCUGAGUGUUAGGCACUGGAAUUCUCGGGUGCCAA` — result for “RBNS enrichment (R)”: 0.33.
`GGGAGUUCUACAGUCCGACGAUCUCUGUAUGCACUGAAAAACGUCGGGUUCUGGGUCUACAAAGCCCCUGCUGCCUGUGUUUGAGGUCUGGAAGGGAGAUUUGAGGAAAGAGAGAGAGAGAGAGAGAGAGAGAUGGAAUUCUCGGGUGCCAA` — result for “RBNS enrichment (R)”: 1.29.
Under “RBNS enrichment (R)”, `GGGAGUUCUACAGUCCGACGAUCGUACCUGCAAGGCAGGUGAGGGCUCUAGCAAGCCCAUGAAGUUCUCAGUGAGCCUCAUUCCCUAGAGCUGAACCUCCACUGCAGGCCCCAAAUCUGAGAUCACAUGAUCUUGGAAUUCUCGGGUGCCAA` is recorded as 0.237.
`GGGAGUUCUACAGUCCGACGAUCUCUCUCCCUAGUGUCCCUUCAGCCUGGGCUGACCAGUGCCCGCCUCUGGGCUUGACCAGUUCCCAAUCUCGUCCUCUGUCCCCAACUUCUUAAGCACAAUUGGGCUUCUUUGGAAUUCUCGGGUGCCAA`: “RBNS enrichment (R)” 0.488.
`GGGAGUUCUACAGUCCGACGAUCCAUUGAGUUUAAUUCAGCAACAACAAAAAAUACAUAUAAAACUAGAAAGGGACUUUUUUUCCUUUCUUUUCAUAAUGAAGCAGAUCAACUUAAAGGAUAAUAAAAUUUUUUGGAAUUCUCGGGUGCCAA` — result for “RBNS enrichment (R)”: 0.379.

Single results of other studies
For `PhoQ, residues 284 288 289 292 302 303 NLALSC`, the fold induction was 1.9 (PhoP, residues 12 14 15 18 19 NQFFI (Escherichia coli, UniProt P23836); Sort-seq, measured: YFP reporter; E. coli; PhoQ-PhoP variant library, with: 10 µM Mg2+; baseline: high Mg2+ state, higher = stronger signaling).

Some of these lines once more (set 3):
`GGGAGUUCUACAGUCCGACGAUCAGGGCAGACAGGAGUCCAGGCUCCAAGCUAUCCCCUUGCCUCUUUCUGCCCCCAGCCCCACCCCCCAACCAGUCUGCCUGUUGCCCCACUCAGCCCUGAGUGUUAGGCACUGGAAUUCUCGGGUGCCAA` — result for “RBNS enrichment (R)”: 0.33.
`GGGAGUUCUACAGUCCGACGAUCUCUGUAUGCACUGAAAAACGUCGGGUUCUGGGUCUACAAAGCCCCUGCUGCCUGUGUUUGAGGUCUGGAAGGGAGAUUUGAGGAAAGAGAGAGAGAGAGAGAGAGAGAGAUGGAAUUCUCGGGUGCCAA` — result for “RBNS enrichment (R)”: 1.29.
